# Published values pooled from the literature.
# Numbered parts are unrelated; each lists some results of a single study.

# Sample 1
# Target: Sal-like protein 4, full length isoform B (SALL4, Homo sapiens, UniProt Q9UJQ4-2, residues 1-616)
# Technique: universal PBM
# Form: double-stranded DNA, one strand shown
# Medium: in vitro
# Concentration: not given
# Notes: 8-mer, flanks averaged, mean of replicates
# Direction: higher = stronger binding
Sequence,E-score
CCCAGAGC,-0.247
ATCGCGGC,-0.172
AAATTTCT,0.234

# Sample 2
# Target: Histone acetyltransferase KAT6A, both winged helices, GST fusion (KAT6A, Homo sapiens, UniProt Q92794, residues 1-181)
# Technique: protein binding microarray
# Form: double-stranded DNA, one strand shown
# Medium: in vitro
# Concentration: not given
# Notes: 8-mer, flanks averaged, mean of 2 arrays, mostly near background
# Baseline: not given
# Direction: higher = stronger binding
# Construct (chain): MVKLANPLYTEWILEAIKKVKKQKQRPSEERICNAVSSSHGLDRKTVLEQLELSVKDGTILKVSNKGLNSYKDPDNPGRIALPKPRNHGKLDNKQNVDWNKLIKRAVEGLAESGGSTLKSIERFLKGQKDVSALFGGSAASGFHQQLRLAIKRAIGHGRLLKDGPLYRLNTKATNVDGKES
Sequence,E-score
GATGCCCC,-0.148
CACAGATA,-0.159
ATCTCGCG,0.17
TAGCAATA,-0.0929

# Single results of other studies
# TARDBP full length, His tag: TAR DNA-binding protein 43, full length, His tag (TARDBP, Homo sapiens, UniProt Q13148, residues 1-414)
Molecule,target,test,test system,setting,how to read,quantity,result
GUGCGC,"TARDBP full length, His tag",RNA Bind-n-Seq,"RNA, in vitro","20 nM, 6-mer, flanks averaged, single round, added: 150 mM KCl","baseline: input library, higher = stronger binding",6-mer enrichment (R),1.46
"PhoQ, residues 284 288 289 292 302 303 SSCCRF","PhoP, residues 12 14 15 18 19 LHTVM (Escherichia coli, UniProt P23836)","Sort-seq, refers to: YFP reporter",E. coli,"PhoQ-PhoP variant library, added: 10 µM Mg2+","baseline: high Mg2+ state, higher = stronger signaling",fold induction,18.3
AACUCA,"TARDBP full length, His tag",RNA Bind-n-Seq,"RNA, in vitro","20 nM, 6-mer, flanks averaged, single round, added: 150 mM KCl","baseline: input library, higher = stronger binding",6-mer enrichment (R),0.613
GGCUGA,"TARDBP full length, His tag",RNA Bind-n-Seq,"RNA, in vitro","20 nM, 6-mer, flanks averaged, single round, added: 150 mM KCl","baseline: input library, higher = stronger binding",6-mer enrichment (R),1.55

# Excerpt of the above (sample 2):
Sequence,E-score
GATGCCCC,-0.148
ATCTCGCG,0.17
